Experimental data collected from several papers.
A part holds a random share of what one study measured. Substitutions count along the parent as printed.

Block 1
Target: ABI1, truncated, D143A, DHFR fusion (Arabidopsis thaliana, UniProt P49597)
Method: DHFR PCA, dose-response
Sample: yeast
Notes: Hill fit, not affinity
Added: (+)-ABA, dose series
Reading: lower = more sensitive
Starting sequence: PYL1, truncated, DHFR fusion (Arabidopsis thaliana, UniProt Q8VZS8); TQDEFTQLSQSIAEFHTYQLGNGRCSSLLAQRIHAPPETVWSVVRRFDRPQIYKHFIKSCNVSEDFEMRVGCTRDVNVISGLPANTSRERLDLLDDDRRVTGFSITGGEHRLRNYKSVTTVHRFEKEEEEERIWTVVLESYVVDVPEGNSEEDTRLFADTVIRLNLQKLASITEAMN
Variant	ABA EC50 [µM]
K54H	2290
N85I	30.8
E130P	1.23
S140K	1650
I133E	0.757
H55P	0.0535
N177E	1.21
N85V	21
F103S	1840
E109D	0.0936

Block 2
Target: UBE2Q1 UBC core domain (UniProt Q7Z7E8)
Sequence of UniProt Q7Z7E8 (whole entry, looked up): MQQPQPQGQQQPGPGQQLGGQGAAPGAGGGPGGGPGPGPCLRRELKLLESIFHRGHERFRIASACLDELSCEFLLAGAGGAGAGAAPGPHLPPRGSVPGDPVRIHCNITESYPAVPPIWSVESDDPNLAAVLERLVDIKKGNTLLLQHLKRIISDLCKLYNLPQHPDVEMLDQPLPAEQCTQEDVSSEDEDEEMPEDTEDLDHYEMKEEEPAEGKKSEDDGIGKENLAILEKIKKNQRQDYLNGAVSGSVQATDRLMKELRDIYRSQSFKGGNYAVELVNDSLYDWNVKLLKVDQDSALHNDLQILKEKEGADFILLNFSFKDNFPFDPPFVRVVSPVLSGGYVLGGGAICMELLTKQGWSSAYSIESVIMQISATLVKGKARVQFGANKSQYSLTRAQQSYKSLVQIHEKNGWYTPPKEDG
Method: yeast two-hybrid
Sample: yeast
Notes: mostly zero background
Relative to: not given
Reading: higher = stronger interaction
B1: TRIM62 RING domain (UniProt Q9BVG3); chain MACSLKDELLCSICLSIYQDPVSLGCEHYFCRRCITEHWVRQEAQGARDCPECRRTFAEPALAP
B2: DTX2 RING domain (UniProt Q86UW9); chain EELKVPPDEDCIICMEKLSTASGYSDVTDSKAIGSLAVGHLTKCSHAFHLLCLLAMYCNGNKDGSLQCPSCKTIYGEKTGTQ
B3: DZIP3 RING domain (UniProt Q86Y13); chain PDEEEEEEEPCVICHENLSPENLSVLPCAHKFHAQCIRPWLMQQGTCPTCRLHVLLPEEFP
B4: MDM4 RING domain (UniProt O15151); chain MEDCQNLLKPCSLCEKRPRDGNIIHGRTGHLVTCFHCARRLKKAGASCPICKKEIQLVIKVF
B5: RNF133 RING domain (UniProt Q8WVZ7); chain DEEINPNGDSCVICFERYKPNDIVRILTCKHFFHKNCIDPWILPHGTCPICKCDILKVLGIQ
B6: SYTL4 RING domain (UniProt Q96C24); chain RGSQHYSDRTCARCQESLGRLSPKTNTCRGCNHLVCRDCRIQESNGTWRCKVCAKEIELKKAT
B7: UBOX5 RING domain (UniProt O94941); chain EQPGSILGPECASCKRVFSPYFKKEPVYQLPCGHLLCRPCLGEKQRSLPMTCTACQRPVASQDVLR
B8: RBCK1 RING domain (UniProt Q9BYM8); chain SLVLNTEPAECPVCYSVLAPGEAVVLRECLHTFCRECLQGTIRNSQEAEVSCPFIDNTYSCSGKLLEREIK
B9: MAP3K1 RING domain (UniProt Q13233); chain NSIKDEEEQMCPICLLGMLDEESLTVCEDGCRNKLHHHCMSIWAEECRRNREPLICPLCRSKWRSHDFYS
B10: RFWD3 RING domain (UniProt Q6PCD5); chain ASMDEEEGDTCTICLEQWTNAGDHRLSALRCGHLFGYRCISTWLKGQVRKCPQCNKKARHSDIVV
Sequence	lacZ reporter activity
PEDRESLKSACVVCLSSFKSCVFLECGHVCSCTECYRALPEPKKCPICRQAITRVIPLY (MUL1 RING domain (UniProt Q969V5))	0
B1 (TRIM62 RING domain)	0
NLSELTPYILCSICKGYLIDATTITECLHTFCKSCIVRHFYYSNRCPKCNIVVHQTQPLY (PCGF6 RING domain (UniProt Q9BYE7))	0
B2 (DTX2 RING domain)	0
FDGDVDPDLKCALCHKVLEDPLTTPCGHVFCAGCVLPWVVQEGSCPARCRGRLSAKELN (PDZRN3 RING domain (UniProt Q9UPQ7))	0
B3 (DZIP3 RING domain)	0
KETIKKTTKPCPRCHVPVEKNGGCMHMKCPQPQCRLEWCWNCGCEWNRVCMG (PRKN RING domain (UniProt O60260))	0
YQNEVDDDLVCHICLQPLLQPLDTPCGHTFCYKCLRNFLQEKDFCPLDRKRLHFKLCKK (LNX2 RING domain (UniProt Q8N448))	0
B4 (MDM4 RING domain)	0
B5 (RNF133 RING domain)	0
B6 (SYTL4 RING domain)	0
B7 (UBOX5 RING domain)	0
B8 (RBCK1 RING domain)	0
B9 (MAP3K1 RING domain)	0
B10 (RFWD3 RING domain)	0
AMYLQENGIDCPKCKFSYALARGGCMHFHCTQCRHQFCSGCYNAFYAKNKC (RNF31 RING domain (UniProt Q96EP0))	0

Block 3
Target: CCND2, cyclin fold, Cln2 fusion (human)
Method: yeast growth competition, sequencing
Sample: yeast
Notes: weak parent motif
Relative to: not given
Reading: higher = stronger binding
Starting sequence: CDAN1 docking peptide (human); RGARSQLFPPTEA; partner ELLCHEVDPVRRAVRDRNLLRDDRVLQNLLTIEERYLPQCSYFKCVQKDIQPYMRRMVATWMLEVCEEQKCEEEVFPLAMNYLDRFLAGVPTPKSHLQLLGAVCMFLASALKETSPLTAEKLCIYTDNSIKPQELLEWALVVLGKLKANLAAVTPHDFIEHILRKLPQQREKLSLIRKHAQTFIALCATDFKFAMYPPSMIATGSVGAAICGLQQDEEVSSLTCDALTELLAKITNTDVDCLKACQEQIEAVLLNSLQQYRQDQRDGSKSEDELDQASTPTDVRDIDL
Variant	normalised enrichment score
RGARSQLFPATEA [P10A]	0.46
RGARAQLFPPTEA [S5A]	0.203
RGARSQLFAPTEA [P9A]	0.167
RGARSQLFPPTAA [E12A]	0.342
RGARSQAFPPTEA [L7A]	0.098
RAARSQLFPPTEA [G2A]	-0.112

Block 4
Target: Centromere-binding protein 1, full length, N-terminal tag (CBF1, Saccharomyces cerevisiae, UniProt P17106, residues 1-351)
Sequence of UniProt P17106 (whole entry, looked up): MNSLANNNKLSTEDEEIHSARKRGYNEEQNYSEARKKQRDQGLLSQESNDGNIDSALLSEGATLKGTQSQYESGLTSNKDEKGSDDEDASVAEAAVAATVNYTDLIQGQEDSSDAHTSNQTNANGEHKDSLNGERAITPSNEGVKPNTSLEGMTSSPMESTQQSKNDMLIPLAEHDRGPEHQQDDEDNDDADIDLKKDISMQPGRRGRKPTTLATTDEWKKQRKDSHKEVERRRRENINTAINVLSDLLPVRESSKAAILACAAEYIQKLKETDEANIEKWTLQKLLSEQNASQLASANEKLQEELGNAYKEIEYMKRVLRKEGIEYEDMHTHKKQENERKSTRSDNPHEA
Method: protein-binding microarray
Form: double-stranded DNA, one strand shown
Sample: in vitro
Concentration: 0.8 µM
Notes: whole 60-bp probe, no competitor
Reading: higher = stronger binding
All sequences stand within: … GTCTTGATTCGCTTGACGCTGCTG
Oligonucleotide	fluorescence intensity
CTAGGATCCACTTGTCATGCGGTGAGAATCGTATTC	617 a.u.
GAATTCTGTAGGAGTCACGTTTCCCGTTGAAATTAG	2750 a.u.
GAATTTGAAGCAATGCACGCCGGTTTTCTTTATTAG	477 a.u.
TGTACGAAGCTATGTCACAATGTTATAGTAGTTAGG	572 a.u.
GAAACATAACGAAGCCACGAGTATTCTATTTGTTAG	588 a.u.
GAAGAATGCCAGAATCATCAGCTGTTTCTCTTCTAG	552 a.u.
GAAGAAGTCTGCCATCATGATGTCCAAGAGGGTTAG	512 a.u.
CTAAAGGCAGAGAATCACGATTGATAAAGATCATTC	528 a.u.
CTAGAACACTACGCCAACGTGATTGGCAATTGTTTC	1380 a.u.
CTAATTTTTTCTTATTGCGTGACCGCAATGAAATTC	1200 a.u.
CTAATATATACACACCACACCACACCCACACACTTC	633 a.u.
GAAATATAATATTTGCACGGGTTCTTTTTTGTGTAG	1010 a.u.
GAAAAACCCTTTACGGGCGTGCATGATGTATCATAG	529 a.u.
GAAATTAAACTTGCGTGCATGCACGTACACACGTAG	626 a.u.
GAAAGTCTTCTGACTCACCTGTTCTGCTTTACCTAG	601 a.u.
GAATTAACTTTATTGCACGTTATTGCTTCCACATAG	647 a.u.
CCTAACTACTATAGGCACGCAAGATAGCTTCGTACA	522 a.u.
TGTACGAAGCTATGAAGCACCACTATAGTAGTTAGG	515 a.u.
CCTAACTACTATAACGTGTGCAGATAGCTTCGTACA	668 a.u.
GAAGCCGATAATAGCTACGTGGTGGGAAGGCTGTAG	486 a.u.
CTAAAAAACAGTCATCAGATGTTTGGGAAGCTGTTC	556 a.u.
CTAGTGATCAGTTCTCACATGCATCATCCTTTATTC	636 a.u.
CTAACCGTTCCACGTGACTAGTCCAAGGATTTTTTC	10800 a.u.
CTAAATCTCTGAAATCATATGAAGATCTTGCTGTTC	500 a.u.
CTAAGCAAACGGCAGCATGTGAAAAAACCCGTATTC	566 a.u.

Block 5
Target: Interferon regulatory factor 7, full length, phosphomimetic (IRF7, Homo sapiens, UniProt Q92985, residues 1-503, S101K/S471D/S472D/S475D/S476D/S477D/S483D/S484D/S487D)
Method: protein-binding microarray
Form: double-stranded DNA, one strand shown
Sample: in vitro
Concentration: 250 nM
Notes: 60-bp whole probe
Added: salmon DNA 0.4 mg/ml
Relative to: random background probes
Reading: higher = stronger binding
All sequences stand within: GCCTAGCAC … GTCTTGATTCGCTTGACGCTGCTG
Residues (chain): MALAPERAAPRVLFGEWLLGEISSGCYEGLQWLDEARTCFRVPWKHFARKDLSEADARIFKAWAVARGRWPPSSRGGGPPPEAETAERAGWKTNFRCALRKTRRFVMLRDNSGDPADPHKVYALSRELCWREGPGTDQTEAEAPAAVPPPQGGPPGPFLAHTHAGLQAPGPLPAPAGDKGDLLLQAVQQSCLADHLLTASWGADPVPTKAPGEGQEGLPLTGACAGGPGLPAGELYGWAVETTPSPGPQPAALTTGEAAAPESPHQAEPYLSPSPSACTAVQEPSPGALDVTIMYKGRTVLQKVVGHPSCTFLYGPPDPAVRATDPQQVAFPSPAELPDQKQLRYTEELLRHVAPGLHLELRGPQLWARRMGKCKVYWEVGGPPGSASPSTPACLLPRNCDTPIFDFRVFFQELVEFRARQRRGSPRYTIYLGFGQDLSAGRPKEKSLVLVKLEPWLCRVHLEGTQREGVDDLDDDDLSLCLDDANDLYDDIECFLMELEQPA
Oligonucleotide	log fluorescence [z-score]
GACGGTTTCCTTATCCTGAAGTGCTAG	3.46
TTAGAACTCAGTATCGATTAGTGCTAG	0.751
GCCGGTATCGACACTGGGGACGTGCTA	-0.27
TTAGATATCGGGACTGGATTCGTGCTA	0.219
GACGATTTCGGGACGGGAGACGTGCTA	0.158
TCAATCCTTCATTTGAAACTGTGCTAG	0.46
GACGGTTTCTTACTGCTGACGTGCTAG	0.893
TTAGGTATCAGGTATCGGTTAGTGCTA	0.95
TTAGGACTGCGTATCCTTTAGTGCTAG	-0.0103
GACGGTATCGACTTGCGGGACGTGCTA	1.81
TTAGATATCGGATTTCGATTAGTGCTA	1.07
TGAGATTCCAGTTTCGATTAGTGCTAG	9.69
TCAAGAATCCCCTTCTAACTGTGCTAG	0.00468
TTTCCTCTGTCATTTTCTCTGTGCTAG	2.66
TTAGCTATCGGTCTCGGTTAGTGCTAG	0.747
TCAGGACTGCTACTGCTTTAGTGCTAG	-0.744
TCAGTCATCGATTTCTTACTGTGCTAG	0.299

Block 6
Target: DDIT3, bZIP domain (human)
Method: DHFR protein complementation
Sample: yeast
Notes: single substitutions, most at no-binding floor
Relative to: wild-type JUN-FOS pair
Reading: higher = stronger binding
Starting sequence: JUN, bZIP domain (human); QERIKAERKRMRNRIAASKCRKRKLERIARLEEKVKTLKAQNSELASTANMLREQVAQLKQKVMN; partner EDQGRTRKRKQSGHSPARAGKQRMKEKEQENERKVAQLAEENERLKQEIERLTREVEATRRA
Variant	binding fitness [natural log]
T37I	0.107
S47I	0.0575
I28F	-0.122
A57K	0.0463
I28R	-0.0714
L38D	-1.14
K34F	-0.304
T48P	-1.11
A29L	-0.195
E54N	-0.0701
L31S	-0.521
A49T	-0.594
L45C	-1.21
A29K	-0.0533
V56F	-0.181
E32L	-0.423
A49I	-0.102
K34M	0.0418
T37R	0.0693
A40W	-0.276
L59T	-0.324
L52P	-1.3
E33T	-0.189
T37L	0.133
A29G	-0.165

A few entries again (block 5):
Oligonucleotide	log fluorescence [z-score]
GACGATTTCGGGACGGGAGACGTGCTA	0.158
TGAGATTCCAGTTTCGATTAGTGCTAG	9.69
TTTCCTCTGTCATTTTCTCTGTGCTAG	2.66
TTAGATATCGGATTTCGATTAGTGCTA	1.07
TTAGATATCGGGACTGGATTCGTGCTA	0.219
TCAGGACTGCTACTGCTTTAGTGCTAG	-0.744
TCAGTCATCGATTTCTTACTGTGCTAG	0.299
